Measured values pooled from the literature.
Lines come from different studies, so protocols differ. Several values in a cell are separate wells, animals, samples, runs or records. Numbers after ± are the reported error.

Structure (SMILES)	test	test system	setting	scale	measurement	value
C[C@@H](Nc1cc(F)cc(F)c1)c1cc(C(=O)N(C)C)cc2c(=O)cc(N3CCOCC3)oc12	–	human, plasma	oral, 30 mg, day 1 single dose	–	Cmax geometric mean	153 ng/mL
C=CCN1CC(=O)N2[C@@H](Cc3ccc(O)cc3F)C(=O)N(Cc3cccc(N4CC(N5CCN(CC)CC5)C4)n3)C[C@@H]2N1C(=O)NCc1ccccc1	–	advanced solid tumour patients	oral, 160 mg twice daily, grade ≥3, dose-escalation	–	treatment-related AST increased	0%
Fc1ccc([C@H]2COC[C@H](c3ccc(-c4ccccc4)cc3)N2)cc1	shake-flask, 1-octanol/buffer	–	pH 7.4	–	logD	> 4.7
Cn1cnc2c(F)c(Nc3ccc(Br)cc3Cl)c(C(=O)NOCCO)cc21	population PK model	human, plasma	oral, sequential zero-first-order absorption, fed	–	absorption rate constant	1.05 h⁻¹
CCCCCN1C[C@H](O)[C@@H](O)[C@H](O)[C@@H]1CO	LC-MS/MS	Hexb-/- mice, female, brain	30 mg/kg/day	–	geometric mean brain concentration	40 ng/g
CNC(=O)c1ccccc1Nc1cc(Nc2ccc(N3CCOCC3)cc2OC)ncc1C(F)(F)F	–	0.1% w/v Soluplus buffer	4 h, pH 4.5, 37 °C	–	solubility	> 1000 µg/mL
CCN1/C(=C/C(C)=O)Sc2ccc(F)cc21	–	cynomolgus monkey	oral, 30 mg/kg, 6 h post-dose	–	heart rate	93 ± 27 beats/min
CC(C)C[C@H](NC(=O)[C@H]1O[C@@H]1C(=O)O)C(=O)NCCCCN=C(N)N	–	MES buffer	100 µM, 23 h, pH 5.5, 37 °C, with: cysteine 10 mM	–	cysteine adduct formation	< 1%
Cc1cc(NC2CCN(C(=O)OC3CCN(C(=O)/C=C/CN(C)C)C3)CC2)n2ncc(C(C)C)c2n1 (centres unmarked)	Phase I dose escalation CTCAE v4.0, item: back pain	patients with advanced solid tumours	dose not given, QD dosing grade 3 or higher	–	patients with adverse event	0%
Cc1nc2ccc(OCc3ccc(C(F)(F)F)cc3)cc2[nH]1	–	Balb/c mouse, male, liver	oral, 10 mg/kg, 4 h	–	tissue concentration	5250 ± 717 ng/g
NCCOCC(=O)N1CCC[C@H](C(=O)NCc2nc(-c3ccc(C(F)(F)F)cc3)cs2)C1	–	rat, bile duct-cannulated, anaesthetised, bile	intravenous, dose not given, 6 h	reference: dose	biliary excretion, unchanged	17%
CN(CCC(=O)O)C(=O)c1ccc2c(c1)CC[C@@H]1[C@@H]2CC[C@]2(C)C(c3cncc(F)c3)=CC[C@@H]12	–	premenopausal women with endometriosis pain, serum	60 mg twice daily, end of treatment, completers, mean	reference: baseline	direct bilirubin change	0.167 mg/dL
CS(=O)(=O)N(CC(=O)Nc1ccccc1C(=O)N1CCOCC1)c1ccc(Cl)cc1	–	octanol/buffer	pH 7.4	–	logD	1.75
CCCCC(CC)COC(=O)c1ccc(O)cc1 (centres unmarked)	–	empty Transwells without cells	5 µM, 60 min, basolateral to apical	–	mass balance	25%
COc1cc2c(cc1OC)CN(CCc1ccc(NC(=O)c3cccc4c(=O)c5cccc(OC)c5[nH]c34)cc1)CC2	–	Sprague Dawley rats, plasma	iv infusion, 8.9 mg/h/kg, 4 h	–	total plasma concentration	3270 ng/mL
O=C(O)CCC(=O)O.[2H]C([2H])([2H])Oc1cc(C)c2[nH]ccc2c1CN1CC[C@@H](C2CC2)C[C@H]1c1ccc(C(=O)O)cc1	–	healthy humans, fed	oral, 200 mg, single dose, high-fat meal	–	Tmax	3.5 h
COc1ncc(-c2nc3c(n2C(C)C)[C@H](c2ccc(Cl)cc2)N(c2cc(Cl)cn(C)c2=O)C3=O)c(OC)n1	LC-MS/MS	human, plasma	oral, 30 mg, cycle 1 day 14, low-dose arm	–	AUC(0-last)	961 ng·h/mL
Cc1cc(-c2nccc3c2ccn3CC(=O)Nc2ccc(-c3cnccn3)cn2)ccn1	–	human	SAD part, single 40 mg dose	–	subjects with any grade 2 TEAE	0%
Cc1cc(/C=C/C#N)cc(C)c1Nc1ccnc(Nc2ccc(C#N)cc2)n1	–	human, normal renal function, plasma	oral, dose not given, 24 h, steady state, fixed-dose combination	–	Ctau	80 ng/mL

Structure (SMILES)	test	test system	setting	scale	measurement	value
CCc1cc(C(=O)NC)c2nccc(N3CCc4c(cc(Cn5ccnc5)cc4-c4cn(C)nc4C(F)(F)F)C3=O)c2c1	–	Sprague Dawley rats	oral, 100 mg/kg twice daily, 7 days	reference: vehicle	serum ALB change	1.1%
CNc1cc[n+](CCNC(=O)c2ccn3c(-c4c(C)noc4C)cnc3c2)cc1.[Cl-]	–	0.1 M HCl	initial, pH 1	–	largest degradation product	not detected
C=CC(=O)NC1CCN(c2ncc3ncnc(Nc4ccc(Oc5ccc6c(c5)ncn6C)c(C)c4)c3n2)CC1	–	healthy male volunteers, plasma	oral solution, 60 mg	reference: compound over total radioactivity	AUC0-inf ratio	0.465
c1ccc(-c2cccc(Nc3nccc(NC4CCCCC4)n3)c2)nc1	–	MDCKII-WT cells	10 µM, pH 7.4	reference: Papp B-A over A-B	efflux ratio	0.87
CCc1nc(C(N)=O)c(Nc2ccc(N3CCC(N4CCN(C)CC4)CC3)c(OC)c2)nc1NC1CCOCC1	–	mouse plasma	15 ng/mL, three freeze-thaw cycles	–	freeze-thaw stability accuracy	91.6%
CCOC(=O)N1C[C@@H](c2ccc(N3CCCC3)cc2)N[C@@H](c2ccc(-c3ccccc3)cc2)C1	shake-flask, 1-octanol/buffer	–	pH 7.4	–	logD	> 4.7
c1ccc(CN2CCCN3CCN(Cc4ccccc4)CCCN(CC2)Cc2cccc(n2)C3)cc1	–	64Cu complex in rat plasma	24 h, 37 °C	–	intact complex	97%
O=c1ccc2ccc(O)cc2o1	metabolic stability	mouse liver S9	2 µM, pH 7.4	–	CLint scaled	2120 mL/min/kg
Cc1cccc([C@H]2N[C@@H](c3ccc(-c4ccccn4)cc3)CO[C@@H]2C)c1	shake-flask, 1-octanol/buffer	–	pH 7.4	–	logD	> 4.7
[O]=[Co].[O]=[Co][O][Co]=[O]	–	rat, male, urine, 24-h collection	oral gavage, single, 300 mg/kg (220 mg Co/kg), day 1, vehicle 0.5% HPMC	–	creatinine-corrected cobalt concentration	0.82 µg/µmol creatinine
CC1(C)OC[C@@H](c2ccc3ccccc3c2)N[C@@H]1c1ccccc1	shake-flask, 1-octanol/buffer	–	pH 7.4	–	logD	> 4.7
CCn1cc(C(=O)N2CCOCC2)c(=O)c2cc(NC3Cc4ccccc4C3)cnc21	–	human, fed	oral tablet, 300 mg single dose, arithmetic mean	–	half-life	4.12 h
C=CCn1c(=O)c2cnc(Nc3ccc(N4CCN(C)CC4)cc3)nc2n1-c1ccc2c(n1)[C@@](O)(CC)CC2	–	female NOD/SCID mouse OVCAR-3 xenograft, plasma	oral, 80 mg/kg once daily, :2	–	AUC(0-24)	29100 ng·h/mL
CCN1CCN(Cc2ccc(Nc3ncc(F)c(-c4cc(F)c5nc6n(c5c4)[C@H](C)CCC6)n3)nc2)CC1	–	human, plasma	300 mg multiple dosing, mean	–	CL/F	41.2 L/h
N#Cc1ccc2c(c1)[C@H]1CCCN(C(=O)c3ccc4[nH]cnc4c3)[C@H]1C2	–	human	40 mg, end of trial	reference: baseline	ACTH level change	0.5 pmol/L
O=c1c2cc(Cl)c(CO)cc2[nH]c(=S)n1Cc1cccnc1	–	mouse	oral, 50 mg/kg	–	oral bioavailability	0.59%
CC(C)C[C@H](NC(=O)[C@H](CC(C)C)NC(=O)[C@H](Cc1c[nH]c2ccccc12)NC(=O)[C@H](CCC(=O)O)NC(=O)[C@@H](NC(=O)[C@H](Cc1ccccc1)NC(=O)[C@H](CCC(=O)O)NC(=O)[C@H](CCCCNC(=O)COCCOCCNC(=O)COCCOCCNC(=O)CC[C@H](NC(=O)CCCCCCCCCCCCCCCCCCC(=O)O)C(=O)O)NC(=O)[C@H](C)NC(=O)[C@H](CCCCN)NC(=O)[C@H](CCCCN)NC(=O)[C@H](CCC(=O)O)NC(=O)[C@H](CC(=O)O)NC(=O)[C@H](CC(C)C)NC(=O)[C@H](Cc1ccc(O)cc1)NC(=O)[C@H](CCCCN)NC(=O)[C@H](CO)NC(=O)[C@H](Cc1ccc(O)cc1)NC(=O)[C@H](CC(=O)O)NC(=O)[C@H](CO)NC(=O)[C@@H](NC(=O)[C@H](Cc1ccccc1)NC(=O)[C@@H](NC(=O)CNC(=O)[C@H](CCC(N)=O)NC(=O)C(C)(C)NC(=O)[C@@H](N)Cc1c[nH]cn1)[C@@H](C)O)[C@@H](C)O)C(C)C)C(=O)N[C@@H](CCC(=O)O)C(=O)NCC(=O)NCC(=O)N1CCC[C@H]1C(=O)N[C@@H](CO)C(=O)N[C@@H](CO)C(=O)NCC(N)=O	–	human, plasma	subcutaneous, 16 mg weekly, week 20, cohorts 1 and 2	–	%AUC extrapolated	0.9%
Oc1ccc(/C=C/c2cc(O)cc(O)c2)cc1	–	rat, azoxymethane-injected, blood at sacrifice	10 mg/kg	–	total cholesterol	70 mg/dL and 75 mg/dL and 76 mg/dL
CC(C)(C(=O)N1CCOc2c(C#N)cncc2C1)C(F)F	–	human, both sexes	oral, 20 mg single dose	–	subjects with dizziness TEAE	0%

Structure (SMILES)	test	test system	setting	scale	measurement	value
CC(C)(C)CC(C)(C)c1ccc(O)c(-n2nc3ccccc3n2)c1	–	EpiSkin reconstructed epidermis	36 h	–	mass recovery	96.9%
O=C(Nc1cnccc1Cl)N1CCN(Cc2ccc3c(c2)OC(F)(F)O3)CC1	item: Dizziness	human healthy young men	25 mg, multiple dose	–	adverse event incidence	0%
Cl.[2H]C([2H])([2H])CC(=O)c1cnc(NC(=O)C2CC2)cc1Nc1cccc(-c2ncn(C([2H])([2H])[2H])n2)c1OC	geometric mean	human	oral, 20 mg once daily, day 7, fasted, liquid, multiple dose	–	half-life	6.99 h
C=CC(=O)N1CCC(c2ccc(C(N)=O)c(-c3ccc(Oc4ccccc4)cc3)n2)CC1	CTCAE 4.03	patients with relapsed/refractory MCL	oral, dose not given	–	incidence of serious anal fistula	0.9%
CCCCOC(=O)N1CCN(C(=O)[C@H](CP(=O)(O)O)NC(=O)c2cc(N3CC[C@H](OC)C3)nc(-c3ccccc3)n2)CC1	–	human	subcutaneous, 16 mg, 1 h post-dose	reference: baseline	change in PR interval	0.2 ± 11.1 ms
COc1cc2c3cc1Oc1c(OC)c(OC)cc4c1[C@@H](Cc1ccc(O)c(c1)Oc1ccc(cc1)C[C@@H]3N(C)CC2)N(C)CC4	–	mouse plasma, K3EDTA	0 h, 25-26 °C, room temperature	–	remaining compound	100%
Cc1cc(Nc2cc3ncccc3c(N[C@@H]3C[C@H]4CC[C@@H](C3)N4CCC#N)n2)n[nH]1	–	healthy human subjects	oral, 300 mg, 14 days, multiple ascending dose	–	skin subcutaneous disorders incidence	17%
Cc1ccc(N(C)C(=O)/C=C/c2ccco2)cc1	hot plate test	mouse	oral, 30 mg/kg single dose, 30 min	–	licking latency	15.3 ± 0.4 s
Nc1c(CC(=O)O)cccc1C(=O)c1ccc(Br)cc1	–	cynomolgus monkey, suspended hepatocytes	–	unbound, scaled in vitro	passive intrinsic clearance	102 mL/min/kg
C[N+](C)([O-])CCCN1c2ccccc2CCc2ccccc21	reverse phase LC, C18	acetonitrile gradient, 0.1% formic acid	converted from retention time	reference: Valko CHI standards	chromatographic hydrophobicity index	67.5
COc1ccc([N+](=O)[O-])cc1NC(=O)C(C)Oc1ccccc1C (centres unmarked)	–	octanol/buffer	pH 7.4	–	logD	4.48
C/C(=N\c1ccc(O)cc1)c1cc2ccccc2n1C	–	Sprague-Dawley rat, male, plasma	intravenous bolus, 5 mg/kg, two-compartment model	–	distribution half-life	~0.267 h
O=C(Nc1nc2cccc(-c3ccc(CN4CCS(=O)(=O)CC4)cc3)n2n1)C1CC1	item: pain in extremity	human rheumatoid arthritis patients	oral, 150 mg once daily, 4 weeks, regardless of relatedness	–	treatment-emergent adverse events	0%
Cc1cn(-c2cc(NC(=O)c3ccc(C)c(Nc4nccc(-c5cccnc5)n4)c3)cc(C(F)(F)F)c2)cn1	–	human, both sexes, plasma	oral, population PK model, typical value	–	absorption duration (D1)	2.32 h
N=C(N)NS(=O)(=O)c1ccc(N/C=C2\C(=O)Nc3ccccc32)cc1	–	octanol/buffer	67 µM, pH 7.4	–	logD	1.71
C[C@@]1(c2cc(NC(=O)c3ccc(C#N)cn3)ccc2F)C=CSC(N)=N1	–	elderly humans, both sexes, plasma	oral, 1 mg single dose	–	dose-normalised Cmax	5.62 ng/mL
Cn1cc(Nc2nccc(-c3ccc4c(c3)CN(C3COC3)CC[C@H]4NC(=O)c3cn(C(C)(C)C)nn3)n2)cn1	item: Monocytes count	human, clinical trial, whole blood	150 mg twice daily, follow-up	–	percent change from baseline	-12.4%
CCOc1c([C@H](C)n2nc(C)c3c(N)ncnc32)cc(Cl)c(F)c1[C@@H]1CNC(=O)C1	ECG	previously treated B-cell malignancy patients	oral, 45 mg once daily, baseline below thresholds	–	observations with PR ≤200 ms	100%

Repeated from above:
Structure (SMILES)	test	test system	setting	scale	measurement	value
C=CC(=O)NC1CCN(c2ncc3ncnc(Nc4ccc(Oc5ccc6c(c5)ncn6C)c(C)c4)c3n2)CC1	–	healthy male volunteers, plasma	oral solution, 60 mg	reference: compound over total radioactivity	AUC0-inf ratio	0.465
c1ccc(-c2cccc(Nc3nccc(NC4CCCCC4)n3)c2)nc1	–	MDCKII-WT cells	10 µM, pH 7.4	reference: Papp B-A over A-B	efflux ratio	0.87
CCc1nc(C(N)=O)c(Nc2ccc(N3CCC(N4CCN(C)CC4)CC3)c(OC)c2)nc1NC1CCOCC1	–	mouse plasma	15 ng/mL, three freeze-thaw cycles	–	freeze-thaw stability accuracy	91.6%
CCOC(=O)N1C[C@@H](c2ccc(N3CCCC3)cc2)N[C@@H](c2ccc(-c3ccccc3)cc2)C1	shake-flask, 1-octanol/buffer	–	pH 7.4	–	logD	> 4.7
c1ccc(CN2CCCN3CCN(Cc4ccccc4)CCCN(CC2)Cc2cccc(n2)C3)cc1	–	64Cu complex in rat plasma	24 h, 37 °C	–	intact complex	97%
O=c1ccc2ccc(O)cc2o1	metabolic stability	mouse liver S9	2 µM, pH 7.4	–	CLint scaled	2120 mL/min/kg
Cc1cccc([C@H]2N[C@@H](c3ccc(-c4ccccn4)cc3)CO[C@@H]2C)c1	shake-flask, 1-octanol/buffer	–	pH 7.4	–	logD	> 4.7
[O]=[Co].[O]=[Co][O][Co]=[O]	–	rat, male, urine, 24-h collection	oral gavage, single, 300 mg/kg (220 mg Co/kg), day 1, vehicle 0.5% HPMC	–	creatinine-corrected cobalt concentration	0.82 µg/µmol creatinine
